Measured values collected from several papers.
Protocols differ between the studies behind these lines. “And” joins repeats or separate records; there may be more than shown.
RET: Proto-oncogene tyrosine-protein kinase receptor Ret (RET, Homo sapiens, UniProt P07949)

| target | assay | setting | how to read | endpoint | value | SMILES |
| --- | --- | --- | --- | --- | --- | --- |
| RET | kinase activity, inhibitor, ProQinase kinase profiling | 25 µM | reference: control | remaining activity | 106% and 111% | COCC12C(=O)NC3C4(C(OC)CC1O)C1CC5(O)C(OC)C(O)C(OC(C)=O)(C1C5OC(=O)c1ccccc1)C3(O)C(OC)C24 (stereo not shown) |
| RET | enzyme activity, inhibitor | 1 µM |  | activity vs control | 95% | CNC(=O)C[C@H](Cc1ccc(C#N)cc1)NC(=O)c1cc(-c2ccc(CN[C@H](C)c3ccc(C)cc3)o2)ccc1Cl |
| RET | enzyme activity, inhibitor | 0.1 µM |  | inhibition | 0% | CN1CCN(Cc2ccc(-c3ccc(CO[C@H]4CCC[C@@H]4NC(=O)c4cc(-c5cnn(C)c5)cnc4N)cc3)cc2)CC1 |
| RET | kinase activity, inhibitor | 1 µM | reference: untreated control | remaining activity | 109% | COc1c(OCCCN2CCOCC2)ccc2c1N=C(NC(=O)c1cnc(N)nc1)N1CCN=C21 |
| RET | cell-free assay | 10 µM |  | inhibition | -3% | Cc1cccc(O[C@H]2CCC[C@@H](C(C)CNCc3ccncc3)C2)c1 (relative stereo) |
| RET | cell-free assay | 10 µM |  | remaining signal | 100% | C=C1CCCCCCCCCC(CO)C1=O (stereo not shown) |
| RET (Homo sapiens, UniProt P07949, V804L) | kinase activity | 0.03 µM, V804L | reference: control | remaining activity | 83% | COc1ccc(NC(=O)Nc2ccc3c(c2)C(=O)N(C(C)CO)CC(C)C(CN(C)Cc2ccc4c(c2)OCO4)O3)cc1 (stereo not shown) |
| RET | enzyme activity, inhibitor | 10 µM |  | inhibition | 35% | NC(=O)[C@@H](O)C[C@H]1CCc2sc3ncnc(O[C@H]4CC[C@H](N5CCOCC5)CC4)c3c21 |
| RET (Homo sapiens, UniProt P07949, V804M) | enzyme activity | 100 nM, human enzyme, together with: 10 µM ATP | reference: untreated | remaining activity | 28% | O=C=[N][Ru-4]123([n]4c5ccc(O)cc5c5c6c(c7cc(F)c[n+]1c7c54)C(=O)NC6=O)[S+]1CC[S+]2CC[S+]3CC1 (stereo not shown) |
| RET | cell-free assay | 1 µM |  | inhibition | 3.1% | C=CC(=O)N1Cc2nc(-c3cc(-c4cc(Cl)cnc4Cl)c(F)cc3F)n(-c3ccncn3)c2C1 |
| RET | enzyme activity, inhibitor, FRET | 1 µM |  | inhibition | 3% | C[C@H]1CN(C(=O)c2cn(-c3ccnc(N)n3)c3cc(C#CC4(O)CCCCC4)ccc23)CCN1 |
| RET | kinase activity | 0.1 µM, together with: ATP at Km |  | inhibition | 8.6% | CCn1cc(C(=O)O)c(=O)c2c(N)c(F)c(NC3CCCCC3)cc21 |
| RET | kinase activity | 0.1 µM |  | inhibition | 26% and 30% | C=CC(=O)Nc1cccc(-c2cnc3[nH]cc(C(=O)NC(C)(C)C)c3n2)c1 |
